Experimental data pooled from the literature.
Compare with care: the assays were run in different laboratories. ± marks the error that the study gave.
Cell line: MCF7

CCCC(CCC)C(=O)[O][Pt]([Cl])([Cl])[O]C(=O)C(CCC)CCC.N.N
DNA-bound platinum (GF-AAS; 5 µM, 24 h; reference: cellular platinum): 18%

C[n+]1c(/C=C/c2ccc(N(c3ccccc3)c3ccccc3)cc2)cc(/C=C2\Sc3ccccc3N2CCCN2CCCC2)c2ccccc21
caspase-3 and Bax levels (Western blot; concentration not given, 36 h): increased

FC(F)(F)C1(c2ccc(CN3CCN(C(c4ccccc4)c4ccc(Cl)cc4)CC3)cc2)CC1 (centres unmarked)
EC50 (72 h): 21 µM

OC(c1cccc(Oc2ccccc2)c1)c1c[nH]c2ncc(C(F)(F)F)cc12 (centres unmarked)
inhibition (cell growth or viability; 10 µM, 72 h): 26%

COc1ccc(NC(=O)CCc2nc3cc(Cl)ccc3[nH]c2=O)cc1
early apoptotic cells (annexin V-FITC; concentration not given): 2.05%

O=C(c1ccc2ccccc2c1)c1cn(-c2ccccc2)nc1C1=Nn2c(Cc3nnc4n3N=C(c3nn(-c5ccccc5)cc3C(=O)c3ccc5ccccc5c3)CS4)nnc2SC1
mRNA level (RT-PCR, item: caspase-3; IC50, 48 h; reference: untreated): 12.6 fold

COc1ccc(-c2nnc(-c3cc(-c4ccccc4)n(-c4ccc(S(N)(=O)=O)cc4)n3)o2)cc1
mRNA level (real-time PCR, item: bax; concentration not given; reference: untreated cells): 4.13 fold

CCCc1cc(O)nc(SCCOC(=O)[C@]2(C)CCC[C@]3(C)c4ccc(C(C)C)cc4CCC23)n1 (some centres unmarked)
apoptotic cells (annexin V-FITC/PI flow cytometry; 10 µM, 48 h): 18.3%

CN(C)c1ccc(/C=C/c2cc(/C=C3\Sc4ccccc4N3CCCN3CCCC3)c3ccccc3[n+]2C)cc1
CTCF mRNA level (qRT-PCR; concentration not given): no effect

CN(C)c1cccc2c(S(=O)(=O)NCCCCCC(=O)NO)cccc12
cells in G1 phase (cell cycle, propidium iodide flow cytometry; 1 µM): 75.8%

COC(=O)[C@H](CSSC[C@H](NC(=O)[C@H](Cc1ccccc1)NC(=O)[C@H](Cc1ccccc1)NC(=O)OC(C)(C)C)C(=O)OC)NC(=O)[C@H](Cc1ccccc1)NC(=O)[C@H](Cc1ccccc1)NC(=O)OC(C)(C)C
protein level (western blot, item: DNA damage, apoptosis, autophagy proteins; concentration not given): no effect

COc1cc2c(=O)c(-c3ccc4c(c3)OCO4)coc2c2c1OC(C)(C)C=C2
apoptotic cells (annexin V/PI flow cytometry; 10 µM, 48 h): 38.8%

CCCCCCCCCCCCCCCC(=O)N[C@H](Cc1ccc(O)cc1)C(=O)N[C@H](CC(C)C)C(=O)N[C@@H](C(=O)NCC(=O)N[C@H](CC(N)=O)C(=O)NCC(=O)N[C@H](CC(C)C)C(=O)N[C@H](CCCNC(=N)N)C(=O)N[C@H](CO)C(=O)N[C@H](CC(N)=O)C(=O)N[C@H](CC(N)=O)C(=O)N[C@H](CCCNC(=N)N)C(N)=O)C(C)C
TGI (48 h, 1% FBS): 0.5 ± 0.025 µM

CN1CCN(c2ccc(C(=O)/C=C/Nc3ccc(S(N)(=O)=O)cc3)cc2)CC1
late apoptotic cells (annexin V/PI; concentration not given): 26.4%

CC(C)(C)C12CC(CN3CCN(C(c4ccccc4)c4ccc(Cl)cc4)CC3)(C1)C2 (centres unmarked)
EC50 (lipid droplet formation, Nile Red staining; 72 h): 16 µM

NS(=O)(=O)c1ccc(/N=N/c2ccc(O)c(/C=N/c3cccc(O)c3)c2)cc1
selectivity index (MTT; 72 h; reference: MCF10A IC50 over MCF7 IC50): 1.43

O=C1c2c(O)cc(O)cc2-c2c(-c3ccc(O)cc3)oc3cc(O)cc1c23
shared upregulated proteins (label-free MS proteomics; concentration not given; reference: tanespimycin upregulated proteins): 48%

NS(=O)(=O)c1ccc(/N=N/c2ccc(O)c(/C=N/c3ccccn3)c2)cc1
selectivity index (MTT; 72 h; reference: MCF10A IC50 over MCF7 IC50): 11.5

CC(=C(c1ccc(O)cc1)c1ccc(Cl)cc1)c1ccc(Cl)cc1
inhibition (cell growth or viability; 10 µM): ≥ 100%

NS(=O)(=O)c1ccc(/N=N/c2ccc(O)c(/C=N/c3cc(Cl)ccc3O)c2)cc1
selectivity index (MTT; 48 h; reference: MCF10A IC50 over MCF7 IC50): 2.4

[Cl][Pd-2]1([Cl])[N+](=Cc2ccc[nH]2)Cc2cccc[n+]21
viability reduction (MTT; 100 µg/mL, 24 h): > 80%

COc1cccc2c1C(=O)c1c(O)c3c(c(O)c1C2=O)CC(O)(C(=O)CO)CC3OC1CC(NC(=O)CCC2=C(C)C(=O)C=C(C(C)C)C2=O)C(O)C(C)O1 (centres unmarked)
intracellular ROS level (DCFDA fluorescence; concentration not given, 4 h; reference: DMSO): increased

Nc1ccccc1NC(=O)c1cnccn1
apoptotic cells (annexin V/PI flow cytometry; IC50, 48 h): 15.6 ± 1.7%

N=C(N)NCCC[C@H](NC(=O)[C@H](Cc1c[nH]c2ccccc12)NC(=O)[C@H](CCC(N)=O)NC(=O)[C@H](Cc1c[nH]c2ccccc12)NC(=O)[C@H](CCCNC(=N)N)NC(=O)[C@H](Cc1c[nH]c2ccccc12)NC(=O)[C@H](CCC(N)=O)NC(=O)[C@H](Cc1c[nH]c2ccccc12)NC(=O)[C@@H](N)CCCNC(=N)N)C(N)=O
caspase activation (flow cytometry; concentration not given, 2 h, intrinsic pathway): ~80%

CCC(=C(c1ccc(Cl)cc1)c1ccc(OCCCN(C)C)cc1)c1ccccc1
inhibition (cell growth or viability; 10 µM): 38.8%

COc1ccc(-c2cc(COC3c4cc5c(cc4C(c4cc(OC)c(OC)c(OC)c4)C4C(=O)OCC34)OCO5)on2)cc1 (centres unmarked)
caspase-3/7 activation (Caspase-Glo 3/7; 20 µg/mL, 24 h): 94.5%

CC(=O)OC[C@H]1O[C@@H](Sc2sc(C(=O)c3ccc(Br)cc3)c(N)c2-c2nc3ccccc3s2)[C@H](OC(C)=O)[C@@H](OC(C)=O)[C@H]1OC(C)=O
growth (SRB; 10 µM, 48 h; reference: untreated): 94.6%

CC(=NNC(=S)NN=C(C(=NO)c1ccccc1)c1ccccc1)c1ccccc1
relative protein level (Western blot, item: cleaved caspase-3; IC50 concentration, 24 h; reference: untreated): 2.11 ± 0.06

O=C1c2ccccc2C(=O)c2c1ccc1c2C(C(=O)Nc2ccccc2Cl)C(=O)C1c1ccccc1 (centres unmarked)
TGI (cell growth or viability): 24.6 µM

CN1CCC2(CC1)C/C(=N\NC(=O)Nc1ccccc1)c1ccccc1O2
cell cycle distribution (PI staining, flow cytometry; concentration not given, %G0-G1): 46.4%

CC(=C(c1ccc(Cl)cc1)c1ccc(OCCN2CCCC2)cc1)c1ccc(Cl)cc1
inhibition (cell growth or viability; 10 µM): 65.9%

O=C(O)C=Cc1ccc(C(=C2CCCCC2)c2ccc(O)cc2)cc1
pS2 mRNA level (antagonist, real-time PCR; 1 µM, together with: 1 nM estradiol): no effect

CC(C)(C)c1cc2c(O)c(c1)Cc1cc(C(C)(C)C)cc(c1OCC(=O)Nc1cncc3ccccc13)Cc1cc(C(C)(C)C)cc(c1O)Cc1cc(C(C)(C)C)cc(c1OCC(=O)Nc1cncc3ccccc13)COC2
apoptotic cells (annexin V-FITC/PI flow cytometry; 20 µM, 24 h): 57.7 ± 0.68%

CC(Cc1ccc(Cl)cc1)=C(c1ccc(Cl)cc1)c1ccc(OCCCN(C)C)cc1
inhibition (cell growth or viability; 10 µM): 1.65%

Cc1ccc(C(C)C)cc1.[Cl-].[Cl][Ru+].[Ru+].c1ccc(-c2cn(CCCCOc3ccccc3-c3nc4ccccc4s3)nn2)nc1
cells in phase (PI flow cytometry, item: G2/M phase; 8 µM, 24 h): 17.1%

Repeated from above:
CC(C)(C)C12CC(CN3CCN(C(c4ccccc4)c4ccc(Cl)cc4)CC3)(C1)C2 (centres unmarked)
EC50 (lipid droplet formation, Nile Red staining; 72 h): 16 µM

NS(=O)(=O)c1ccc(/N=N/c2ccc(O)c(/C=N/c3cccc(O)c3)c2)cc1
selectivity index (MTT; 72 h; reference: MCF10A IC50 over MCF7 IC50): 1.43

O=C1c2c(O)cc(O)cc2-c2c(-c3ccc(O)cc3)oc3cc(O)cc1c23
shared upregulated proteins (label-free MS proteomics; concentration not given; reference: tanespimycin upregulated proteins): 48%

NS(=O)(=O)c1ccc(/N=N/c2ccc(O)c(/C=N/c3ccccn3)c2)cc1
selectivity index (MTT; 72 h; reference: MCF10A IC50 over MCF7 IC50): 11.5
